Results collected from several papers.
Organism: Candida albicans

| SMILES | assay | test system | setting | how to read | MIC |
| --- | --- | --- | --- | --- | --- |
| CC[C@H](C)[C@H](NC(=O)[C@H](C)NC(=O)[C@H](C)NC(=O)[C@H](Cc1ccccc1)NC(=O)[C@H](C)NC(=O)CNC(=O)[C@H](Cc1ccccc1)NC(=O)[C@@H](N)Cc1ccccc1)C(=O)N[C@@H](C)C(=O)N[C@@H](CO)C(=O)N[C@@H](CC(C)C)C(=O)N[C@H](C(=O)N[C@H](C(=O)N1CCC[C@H]1C(=O)N[C@@H](CCCCN)C(=O)N[C@@H](CC(C)C)C(=O)N[C@H](C(=O)N[C@@H](CCC(=O)O)C(=O)N[C@@H](CCCCN)C(=O)N[C@H](C(=O)N[C@@H](CCCCN)C(=O)N[C@@H](CCC(N)=O)C(=O)N[C@@H](C)C(=O)N[C@@H](CCCNC(=N)N)C(N)=O)[C@@H](C)CC)[C@@H](C)CC)[C@@H](C)CC)C(C)C | ATP luminescence | FH2173 | 48 h | – | > 50 µM |
| [Ag+].[S-]c1ccccn1.c1ccc(P(c2ccccc2)c2ccccc2)cc1.c1ccc(P(c2ccccc2)c2ccccc2)cc1 | agar dilution | MTCC 227, Mueller Hinton agar | 24 h, 25 °C | – | 50 µg/mL |
| O=C(NCCNCCO)c1cn(Cc2ccccc2)c2cc(Cl)c(OCc3ccc(Cl)cc3)cc2c1=O | – | ATCC 90028 | – | ≥80% growth inhibition | > 32 µg/mL |
| CC[C@H](C)[C@@H]1NC(=O)CNC(=O)[C@H](CCCCN)NC(=O)[C@H](C)NC(=O)[C@H](CCC(=O)O)NC(=O)[C@H](Cc2ccccc2)NC(=O)[C@H](CO)NC(=O)[C@H](CC(C)C)NC(=O)[C@H](C(C)C)NC(=O)[C@H](CC(=O)O)NC(=O)[C@@H](NC(=O)[C@@H](NC(=O)[C@@H](N)C(C)C)[C@@H](C)O)CSSC[C@@H]2NC(=O)[C@H](CO)NC(=O)CNC(=O)CNC(=O)[C@H](CCCCN)NC(=O)[C@H](CCCCN)NC(=O)[C@H](CCCNC(=N)N)NC(=O)[C@H](CC(C)C)NC(=O)[C@H](C)NC(=O)[C@H]([C@@H](C)CC)NC(=O)[C@H](C)NC(=O)[C@H](Cc3c[nH]cn3)NC(=O)[C@H](CC(C)C)NC(=O)[C@H](C)NC(=O)[C@H](CSSC[C@@H](C(=O)N[C@H](C(=O)N[C@@H](C)C(=O)N[C@@H](CCCNC(=N)N)C(=O)N[C@@H](CC(N)=O)C(=O)O)C(C)C)NC(=O)[C@H](C(C)C)NC(=O)CNC(=O)[C@H](CC(N)=O)NC(=O)[C@H](CCC(N)=O)NC2=O)NC(=O)[C@H](C)NC(=O)[C@H](CO)NC(=O)[C@H](Cc2c[nH]cn2)NC(=O)[C@H](CC(N)=O)NC(=O)[C@H](C(C)C)NC(=O)[C@H](C)NC1=O | broth microdilution | ATCC 90028 | 28 °C | – | 12.5 µM |
| CC[C@H](C)[C@H](NC(=O)[C@H](CC(C)C)NC(=O)[C@H](CCC(=O)O)NC(=O)[C@H](CO)NC(=O)[C@H](CCCNC(=N)N)NC(=O)[C@@H](N)CO)C(=O)N[C@H](C(=O)N[C@@H](CCCNC(=N)N)C(=O)N[C@@H](CCC(N)=O)C(=O)N[C@@H](CCCNC(=N)N)C(=O)N[C@@H](CC(C)C)C(=O)N[C@@H](Cc1ccccc1)C(N)=O)C(C)C | broth microdilution | RPMI MOPS-buffered | – | – | > 400 µg/mL |
| CC1C(=NOCc2cn(-c3ccccc3)nn2)C(C)C(c2ccc(Br)cc2)OC1c1ccc(Br)cc1 (stereo not drawn) | microbial growth | – | – | – | 25 µg/mL |
| CC(C)C[C@H](NC(=O)[C@H](CCCNC(=N)N)NC(=O)[C@H](CCC(N)=O)NC(=O)[C@H](Cc1c[nH]cn1)NC(=O)[C@@H](NC(=O)[C@H](CCCNC(=N)N)NC(=O)[C@H](CC(C)C)NC(=O)[C@H](CCC(=O)O)NC(=O)[C@H](CO)NC(=O)[C@H](CCCNC(=N)N)NC(=O)[C@@H](N)CO)C(C)C)C(=O)N[C@@H](Cc1ccccc1)C(N)=O | broth microdilution | RPMI MOPS-buffered | – | – | > 400 µg/mL |
| CC[C@H](C)[C@H](NC(=O)[C@H](CCC(N)=O)NC(=O)[C@@H]1CCCN1C(=O)[C@@H](NC(=O)[C@@H](NC(=O)[C@H](Cc1ccccc1)NC(=O)[C@H](C)NC(=O)[C@H](C)NC(=O)[C@H](CC(C)C)NC(=O)[C@H](CCCNC(=N)N)NC(=O)[C@H](C)NC(=O)[C@H](CC(C)C)NC(=O)[C@H](CC(C)C)NC(=O)CNC(=O)[C@@H](NC(=O)[C@@H](N)Cc1ccccc1)C(C)C)C(C)C)[C@@H](C)CC)C(=O)N[C@H](C(=O)N[C@@H](CCCCN)C(=O)N[C@@H](CCCNC(=N)N)C(=O)N[C@@H](Cc1ccccc1)C(=O)N[C@@H](CCC(N)=O)C(=O)N[C@@H](CCCCN)C(=O)N[C@@H](CCCCN)C(=O)N[C@@H](CC(N)=O)C(N)=O)C(C)C | ATP luminescence | FH2173 | 48 h | – | 6.25 to 12.5 µM |
| CC[C@H](C)[C@@H]1NC(=O)[C@H](CC(C)C)NC(=O)[C@@H](NC(=O)[C@H](CO)NC(=O)[C@H](CCCNC(=N)N)NC(=O)[C@@H](N)CO)CCSSCC[C@@H](C(=O)N[C@@H](CCC(N)=O)C(=O)N[C@@H](CCCNC(=N)N)C(=O)N[C@@H](CC(C)C)C(=O)N[C@@H](Cc2ccccc2)C(N)=O)NC(=O)[C@H](C(C)C)NC1=O | broth microdilution | ATCC 24433 | – | – | 10 µg/mL |
| CC[C@H](C)[C@H](NC(=O)[C@H](CC(=O)O)NC(=O)[C@H](Cc1ccccc1)NC(=O)[C@H](CC(C)C)NC(=O)CN)C(=O)N[C@H](C(=O)N[C@@H](CCCCN)C(=O)N[C@@H](CCCCN)C(=O)N[C@H](C(=O)N[C@@H](CC(C)C)C(=O)N[C@@H](CCCCN)C(=O)N[C@@H](CC(C)C)C(=O)N[C@@H](CC(C)C)C(=O)N[C@@H](CCCCN)C(N)=O)C(C)C)C(C)C | broth microdilution OD530 | ATCC 90028, yeast nitrogen base | 24 h, 35 °C | – | > 20 µM |
| CC[C@H](C)[C@@H]1NC(=O)CNC(=O)[C@H](CCCCN)NC(=O)[C@H](C)NC(=O)[C@H](CCC(=O)O)NC(=O)[C@H](Cc2ccccc2)NC(=O)[C@H](CO)NC(=O)[C@H](CC(C)C)NC(=O)[C@H](C(C)C)NC(=O)[C@H](CC(=O)O)NC(=O)[C@@H](NC(=O)[C@@H](NC(=O)[C@@H](N)C(C)C)[C@@H](C)O)CSSC[C@@H]2NC(=O)[C@H](CO)NC(=O)CNC(=O)CNC(=O)[C@H](CCCCN)NC(=O)[C@H](CCCCN)NC(=O)[C@H](CCCNC(=N)N)NC(=O)[C@H](CC(C)C)NC(=O)[C@H](C)NC(=O)[C@H]([C@@H](C)CC)NC(=O)[C@@H]3CSSC[C@@H](C(=O)N[C@@H](CCCNC(=N)N)C(=O)N[C@@H](CC(N)=O)C(=O)O)NC(=O)[C@H](C(C)C)NC(=O)[C@H](CSSC[C@H](NC(=O)[C@H](C)NC(=O)[C@H](CO)NC(=O)[C@H](Cc4c[nH]cn4)NC(=O)[C@H](CC(N)=O)NC(=O)[C@H](C(C)C)NC(=O)[C@H](C)NC1=O)C(=O)N[C@@H](C)C(=O)N[C@@H](CC(C)C)C(=O)N[C@@H](Cc1c[nH]cn1)C(=O)N3)NC(=O)[C@H](C(C)C)NC(=O)CNC(=O)[C@H](CC(N)=O)NC(=O)[C@H](CCC(N)=O)NC2=O | broth microdilution | ATCC 90028 | 28 °C | – | 10 µM |
| CC[C@@H](CC(=O)N[C@@H](CCCNC(=N)N)CC(=O)N[C@H](CC(=O)N[C@@H](CC)CC(=O)N[C@@H](CCCNC(=N)N)CC(=O)N[C@H](CC(=O)N[C@@H](CC)CC(=O)N[C@@H](CCCNC(=N)N)CC(N)=O)[C@@H](C)CC)[C@@H](C)CC)NC(=O)C[C@@H](N)[C@@H](C)CC | broth microdilution | SC5314 | 48 h, pH 7.2, 35 °C | – | 128 µg/mL |
| CC[C@H](C)[C@@H]1NC(=O)[C@H](CC(C)C)NC(=O)[C@@H](NC(=O)[C@H](CO)NC(=O)[C@H](CCCNC(=N)N)NC(=O)[C@@H](N)CO)CSSC[C@@H](C(=O)N[C@@H](CCC(N)=O)C(=O)N[C@@H](CCCNC(=N)N)C(=O)N[C@@H](CC(C)C)C(=O)N[C@@H](Cc2ccccc2)C(N)=O)NC(=O)[C@H](C(C)C)NC(=O)[C@H]([C@@H](C)CC)NC(=O)[C@H](CC(C)C)NC(=O)[C@@H](NC(=O)[C@H](CO)NC(=O)[C@H](CCCNC(=N)N)NC(=O)[C@@H](N)CO)CSSC[C@@H](C(=O)N[C@@H](CCC(N)=O)C(=O)N[C@@H](CCCNC(=N)N)C(=O)N[C@@H](CC(C)C)C(=O)N[C@@H](Cc2ccccc2)C(N)=O)NC(=O)[C@H](C(C)C)NC1=O | broth microdilution | ATCC 24433 | – | – | 29 µg/mL |
| COc1cc2c(=O)c(C(=O)NCCNCCO)cn(Cc3ccccc3)c2cc1OCc1cccc(Cl)c1 | – | ATCC 90028 | – | ≥80% growth inhibition | > 32 µg/mL |
| CC(C)[C@@H](CC(=O)N[C@@H](CCCCN)CC(N)=O)NC(=O)[C@H]1CCCC[C@@H]1NC(=O)C[C@H](CCCCN)NC(=O)C[C@@H](NC(=O)[C@H]1CCCC[C@@H]1NC(=O)C[C@H](CCCCN)NC(=O)C[C@@H](NC(=O)[C@H]1CCCC[C@@H]1N)C(C)C)C(C)C | broth microdilution | SC5314 | 48 h, pH 7.2, 35 °C | – | 8 µg/mL |

For quick reference, copied from above:
| SMILES | assay | test system | setting | how to read | MIC |
| --- | --- | --- | --- | --- | --- |
| CC[C@H](C)[C@H](NC(=O)[C@H](CC(C)C)NC(=O)[C@H](CCC(=O)O)NC(=O)[C@H](CO)NC(=O)[C@H](CCCNC(=N)N)NC(=O)[C@@H](N)CO)C(=O)N[C@H](C(=O)N[C@@H](CCCNC(=N)N)C(=O)N[C@@H](CCC(N)=O)C(=O)N[C@@H](CCCNC(=N)N)C(=O)N[C@@H](CC(C)C)C(=O)N[C@@H](Cc1ccccc1)C(N)=O)C(C)C | broth microdilution | RPMI MOPS-buffered | – | – | > 400 µg/mL |
